# Results from different studies.
# Each line is one published result; not all experiments were run side by side. Numbers after ± are the reported error.
SMILES,cell line,effect on,mode,method,time,notes,IC50
Cc1ccccc1/C=C/C(=O)N[C@@H](CO)C(=O)N[C@H](C(=O)N[C@H](Cc1ccccc1)C(=O)O)[C@@H](C)O,SNU-638,,,,,,> 20 µM
CCn1nc(Cl)c2c1-c1cnc(N)c(c1)O[C@H](C)c1cc(F)ccc1-c1nn(C)cc1C2,"Ba/F3 EML4-ALK v1, no mutation",cell viability,,,,,0.00162 µM
CCCC(CCC)C(=O)[O][Pt]([NH2])([NH2])([Cl])([Cl])[O]C(=O)C(C)c1ccc(CC(C)C)cc1 (stereo not shown),LoVo oxaliplatin-resistant,cytotoxicity,,MTT,72 h,,0.84 ± 0.02 µM
O=C(Nc1ccc(C(=O)Nc2ccc3[nH]ncc3c2)c(F)c1)Nc1cc(C(F)(F)F)ccc1F,KM12-Luc (TPM3-NTRK1),cell growth,,CellTiter-Glo,72 h,,9.7 ± 0.82 µM
CC(C)c1ccc(N(C)c2ccc3c(c2)OCC[C@H]3CNc2cnccc2C(=O)O)cc1,KYSE-270,cell growth or viability,,ATP luminescence,7 days,,0.00535 µM
CCCCCCCC(=O)Oc1c(C)c(OC)c2c(/C=C/c3ccccc3)c(CCCCCC)c(=O)oc2c1C,SH-SY5Y,cell growth or viability,,SRB,72 h,,> 50 µM
C=CC(=O)N1CCCC(n2c(=O)c3ncccc3n(Cc3ccc(Oc4ccccc4)cc3)c2=O)C1 (stereo not shown),SU-DHL-16,cell growth or viability,,MTT,72 h,,1.5 µM
CC(C)Cc1ccc(C(C)C(=O)[O][Pt]([NH2])([NH2])([Cl])([Cl])[O]C(=O)CCCc2ccccc2)cc1 (stereo not shown),LoVo oxaliplatin-resistant,cytotoxicity,,MTT,72 h,,> 3.12 µM
[BH3-][P+]1(C2CCCCC2)CCCCC1,SW480,cell growth or viability,,MTT,72 h,,> 100 µM
CCNC(=S)NN=Cc1c2ccccc2cc2ccccc12.Cc1ccc(C(C)C)cc1.[Cl-].[Cl-].[Ru+2],CCD-18Co,cytotoxicity,,MTS,24 h,,298 ± 9 µM
Nc1nc2cnc(C(=O)N3CCOC[C@@H]3c3ccc(C(F)(F)F)cc3)cc2c2c1COC2,HCT-116 MTAP wild type,cell viability,,CellTiter-Glo,6 days,,4.33 µM
CCCCCC(=O)Oc1c(C)c(OC)c2c(c1C)OC(=O)[C@@H](CCCC)[C@]2(O)/C=C/c1ccccc1 (relative stereo),KKU-M213,cell growth or viability,,SRB,72 h,,> 50 µM
O=C(Nc1ccc(C(=O)Nc2ccc3[nH]ncc3c2)cc1F)Nc1cc(C(F)(F)F)ccc1F,KM12-Luc (TPM3-NTRK1),cell growth,,CellTiter-Glo,72 h,,47.6 ± 3.2 µM
CC(C)C(=O)Cc1c(OCC(O)C(C)(C)O)ccc2ccc(=O)oc12 (stereo not shown),COLO 320 multidrug resistant,cell growth,,MTT,72 h,,72 µM
CCOc1cncc(-c2ccc(NC(=O)C3(c4ccnc(NS(=O)(=O)C5CC5)n4)CCOCC3)nc2)n1,SNB-75,cell growth or viability,,ATP luminescence,72 h,,10 µM
CNS(=O)(=O)Nc1nccc(Cc2c(C)c3ccc(Oc4ncccc4F)cc3oc2=O)c1F,WILL-2,cell viability,,CellTiter-Glo,7 days,,> 1 µM
O=C(Nc1cc(C(=O)Nc2ccc3[nH]ncc3c2)ccc1F)Nc1cc(C(F)(F)F)ccc1F,KM12-Luc (TPM3-NTRK1),cell growth,,CellTiter-Glo,72 h,,28.8 ± 4.73 µM
CCCCCC(=O)Oc1c(C)c(OC)c2c(/C=C/c3ccccc3)c(CCCC)c(=O)oc2c1C,KKU-M213,cell growth or viability,,SRB,72 h,,> 50 µM
CSC(=S)N/N=C(\C)c1ccc(Nc2nnc(-c3ccc(Cl)cc3)c3ccccc23)cc1,MCF7,cell growth or viability,,MTT,,,0.2 µM
COc1c(C)c(OCc2ccccc2)c(C)c(OCc2ccccc2)c1C(=O)/C=C/c1ccccc1,KKU-M213,cell growth or viability,,SRB,72 h,,> 50 µM
Cn1ncc(-c2ccc3c(=O)[nH]nc(CN)c3c2)c1-c1c(F)c(Cl)cc(OC2CC2)c1C#N,KP-4,cell viability,inhibitor,CellTiter-Glo,120 h,baseline-subtracted,0.05 µM
Cn1ncc2cc(-c3cncc(Cl)c3N3CCC4(CCNC4=O)CC3)ccc21,LS174T,WNT reporter gene,inhibitor,TCF/LEF luciferase,,,0.033 ± 0.012 µM
O=C(CN1CCN(C(=O)c2ccc(C(F)(F)F)cc2)CC1)Nc1cccc(C(=O)Nc2ccc3[nH]ncc3c2)c1,KM12-Luc (TPM3-NTRK1),cell growth,,CellTiter-Glo,72 h,,49.2 ± 1.69 µM
Cc1cc(Cl)cc(-c2ccnc3cc(CN4C(=O)C5C(C4=O)C5(C)C)sc23)c1C[C@@H]1CNCCO1 (stereo partly shown),CAPAN-1,cell viability,,SRB,5 days,mean of replicates,0.17 µM
CCCCCCCCCCCC(=O)Oc1c(C)c(OC)c2c(c1C)OC(=O)[C@@H](CCCCCCCCCC)[C@]2(O)/C=C/c1ccccc1 (relative stereo),SH-SY5Y,cell growth or viability,,SRB,72 h,,> 50 µM
O=[P@]1(c2ccccc2)CC[C@@H](O)CC1,SW480,cell growth or viability,,MTT,72 h,,> 100 µM
Cc1ccc([N+](=O)[O-])cc1S(=O)(=O)N(C)/N=C/c1cnc2ccc(Br)cn12,SNB-75,,,MTS,,NCI60 panel,0.435 µM
Cc1cc(C(=O)Nc2ccc3[nH]ncc3c2)ccc1NC(=O)Nc1cc(C(F)(F)F)ccc1F,KM12-Luc (TPM3-NTRK1),cell growth,,CellTiter-Glo,72 h,,> 50 µM
Nc1nnc(-c2ccccc2O)cc1N1CC2CCC(C1)N2c1ccnc(C#CCCN2CCCCCC2)c1,HCC515,cell growth or viability,,ATP luminescence,7 days,,0.0421 µM
O=C(Nc1cc(-c2ccnc3[nH]ccc23)c(Cl)cn1)[C@H]1CCC[C@@H](NC(=O)C(F)(F)F)C1,"Z-138, BTK inhibitor-resistant",cell viability,,,72 h,,0.0655 µM
Cc1ccccc1Nc1c(C2CN(C(=O)OC(C)(C)C)C2)nc2c(Br)c(F)ccn12,786-O,,,,,,20.7 µM
CN1CCC(N[C@H]2CCc3[nH]c4c(C(N)=O)ccc(-c5ccccc5Cl)c4c3C2)CC1,BXPC-3,cell growth or viability,,,,,2.46 µM
[BH3-][P+]1(c2ccccc2)CCC(=O)CC1,SW480,cell growth or viability,,MTT,72 h,,> 100 µM
O=C1C2=Nc3ccccc3CN2C(=S)N1c1ccccc1,"CEM/ADR5000 (P-gp overexpressing, multidrug-resistant)",cell viability,,resazurin,72 h,,inactive

# A few entries again:
SMILES,cell line,effect on,mode,method,time,notes,IC50
O=C(Nc1cc(-c2ccnc3[nH]ccc23)c(Cl)cn1)[C@H]1CCC[C@@H](NC(=O)C(F)(F)F)C1,"Z-138, BTK inhibitor-resistant",cell viability,,,72 h,,0.0655 µM
CN1CCC(N[C@H]2CCc3[nH]c4c(C(N)=O)ccc(-c5ccccc5Cl)c4c3C2)CC1,BXPC-3,cell growth or viability,,,,,2.46 µM
Nc1nc2cnc(C(=O)N3CCOC[C@@H]3c3ccc(C(F)(F)F)cc3)cc2c2c1COC2,HCT-116 MTAP wild type,cell viability,,CellTiter-Glo,6 days,,4.33 µM
CC(C)c1ccc(N(C)c2ccc3c(c2)OCC[C@H]3CNc2cnccc2C(=O)O)cc1,KYSE-270,cell growth or viability,,ATP luminescence,7 days,,0.00535 µM
Cc1cc(C(=O)Nc2ccc3[nH]ncc3c2)ccc1NC(=O)Nc1cc(C(F)(F)F)ccc1F,KM12-Luc (TPM3-NTRK1),cell growth,,CellTiter-Glo,72 h,,> 50 µM
